Assay results of several laboratories.
Each line is one published result; not all experiments were run side by side. ± gives the spread as reported.
Cell line: HepG2

Compound = Cc1ccc(NC(=O)c2cccc(C(F)(F)F)c2)cc1N1Cc2cnc(N)nc2N(C)C1=O; assay = cell growth or viability, ATP luminescence; conditions = 72 h; measurement = GI50; value = 2.69 µM
Compound = CCOc1cccc2c1[O][Pt-2]1([Cl])[N+](=C2)c2ccccc2[NH+]1c1ccccc1 (centres unmarked); assay = flow cytometry PI; conditions = concentration not given, 24 h; measurement = sub-G1 cells; value = 60 to 65%
Compound = CN(C(=NN=C(c1ccccc1)c1ccccn1)[S][Ga]([Cl])[Cl])C1CCCCC1; assay = Annexin V/PI flow cytometry; conditions = 5 µM, 24 h, early plus late apoptosis; scale = relative to: control; measurement = apoptotic cells; value = 40.7%
Compound = Cc1ccc(NCC(=O)NC2CCC(F)(F)CC2)cc1S(=O)(=O)N1CCOCC1; assay = cell growth or viability; measurement = EC50; value = > 25 µM
Compound = CC(=O)N[C@H](C(=O)N[C@H](C(=O)N[C@@H](Cc1ccccc1)C(=O)N[C@H](C(=O)N[C@@H](CO)C(=O)N[C@@H](Cc1c[nH]c2ccccc12)C(=O)N[C@@H](CCC(=O)O)C(=O)N[C@@H](CCC(=O)O)C(=O)N[C@@H](Cc1ccc(O)cc1)C(=O)N[C@@H](CC(C)C)C(=O)N[C@@H](CC(=O)O)C(=O)N[C@@H](Cc1c[nH]c2ccccc12)C(=O)N[C@H](C(N)=O)C(C)C)[C@@H](C)O)C(C)C)[C@@H](C)O; assay = BODIPY-LDL uptake; conditions = 30 µM, together with: 15 µg/mL PCSK9; scale = relative to: maximal without PCSK9; measurement = LDL uptake restored; value = ~80%
Compound = COc1ccc(NC(C)(C)C(=O)Nc2ccc(F)c(Cl)c2)cc1S(=O)(=O)N1CCOCC1; assay = cell growth or viability; measurement = EC50; value = > 25 µM
Compound = COc1cc(COC(=O)C2C(C=O)=Cc3cc4c(cc3C2c2cc(OC)c(OC)c(OC)c2)OCO4)cc(OC)c1OC (centres unmarked); scale = relative to: CC50 HepG2 over amastigote EC50; measurement = selectivity index; value = 8.8
Compound = CSC(=S)N/N=C(\C)c1ccc(S(=O)(=O)N2CCC(C)CC2)cc1; assay = annexin V/PI staining; conditions = IC50, 72 h; measurement = apoptotic cells total; value = 11.8%
Compound = C=C1CC(OC(=O)C(C)(O)CCl)C2C(=C)C(=O)OC2C2C1CC(O)C2(O)CCl (centres unmarked); assay = PI flow cytometry; conditions = IC50, 48 h; measurement = cells in G1 phase; value = 60.1 ± 1.7%
Compound = N[C@@H](Cc1c[nH]cn1)C(=O)NCCC(=O)N1CCC[C@H]1C(=O)NCCC(=O)N[C@@H](Cc1c[nH]cn1)C(=O)O; assay = LDH; conditions = 10 µg/mL, 6 h, 1% FBS; measurement = viability; value = 61%
Compound = CC(=NN=c1sc(C(=O)c2ccccc2)nn1-c1ccccc1)c1ccc(S(=O)(=O)N2CCC(C)CC2)cc1; assay = annexin V/PI staining; conditions = IC50, 72 h; measurement = necrotic cells; value = 2.52%
Compound = Cc1ccc(NCC(=O)Nc2ccc(F)c(Cl)c2)cc1S(=O)(=O)N1CC2CCC(C1)O2; assay = cell growth or viability; measurement = EC50; value = > 25 µM
Compound = [Cl][Pd-2]1([Cl])[N+](=Cc2ccc[nH]2)Cc2cccc[n+]21; assay = MTT; conditions = 100 µg/mL, 24 h; measurement = viability reduction; value = > 80%
Compound = CC(=O)O[C@@H]1CC[C@@]2(C)C(CC[C@]3(C)C2C(=O)C=C2C4[C@@H](C)[C@H](C)CC[C@]4(C)CC[C@]23C)[C@@]1(C)C(=O)N/N=C1/C(=O)Nc2ccccc21 (some centres unmarked); conditions = 1 µM, acetaminophen-induced injury, together with: 10 mM acetaminophen; measurement = MDA level; value = 9.6 nmol/mg
Compound = Cc1ccc(-c2cn3cc(C)ccc3n2)cc1; assay = cell growth or viability; conditions = 48 h; measurement = EC50; value = > 50 µM
Compound = Cc1ccc(NCC(=O)Nc2ccc(F)c(Cl)c2)cc1S(=O)(=O)N1CCCCC1; assay = cell growth or viability; measurement = EC50; value = 24 µM
Compound = O=C1CCNC(=O)[C@H](Cc2c[nH]cn2)NC(=O)[C@@H]2CCCN2C(=O)[C@H](Cc2c[nH]cn2)NC(=O)CCN1; assay = MTT; conditions = 10 µg/mL, 6 h; measurement = viability; value = 13.9%
Compound = CC(=O)O[C@@H]1CC[C@@]2(C)C(CC[C@]3(C)C2C(=O)C=C2C4[C@@H](C)[C@H](C)CC[C@]4(C)CC[C@]23C)[C@@]1(C)C(=O)OCC(=O)Oc1cc(C)ccc1C(C)C (some centres unmarked); assay = TNF-α production, ELISA, item: TNF-α; conditions = 1 µM, together with: acetaminophen 10 mM; scale = relative to: acetaminophen-treated cells; measurement = inhibition; value = ~41%
Compound = Cc1ccc(NCC(=O)N(C)c2ccc(F)c(Cl)c2)cc1S(=O)(=O)N1CCOCC1; assay = cell growth or viability; measurement = EC50; value = > 25 µM
Compound = Cc1c(C(=O)NNC(=S)Nc2ccc(Cl)cc2)nnn1Cc1nc2ccccc2[nH]1; assay = annexin V/PI; conditions = concentration not given, 24 h; measurement = necrotic cells; value = 7.12%
Compound = NCCC(=O)N[C@@H](Cc1c[nH]cn1)C(=O)O; assay = LDH; conditions = 10 µg/mL, 6 h, 1% FBS; measurement = viability; value = 73.2%
Compound = COc1cc(/C=C/C(=O)OCCCC[P+](c2ccccc2)(c2ccccc2)c2ccccc2)ccc1O; assay = SRB; conditions = 24 h; scale = relative to: IC50 L02 over IC50 HepG2; measurement = therapeutic index; value = 8.61
Compound = CCC[C@H]1CC[C@H](c2ccc(NC(=S)NC[C@@H]3[C@@H](O)[C@@H](O)[C@H]4[C@H](O)CCCN43)cc2)CC1; assay = Transwell; conditions = concentration not given; measurement = cell migration; value = decreased
Compound = N#CCC(=O)NNC(=S)Nc1ccc(Cl)c(Cl)c1; assay = item: SREBP target genes; conditions = up to 100 µM, 24 h; measurement = mRNA level; value = no effect
Compound = CCOC(=O)c1c(C(C)C)oc2nc(N3CCOCC3)ccc12; assay = cell growth or viability; conditions = 48 h; measurement = EC50; value = > 50 µM
Compound = O=C(/C=C/c1ccc(O)c(O)c1)OCCCC[P+](c1ccccc1)(c1ccccc1)c1ccccc1; assay = SRB; conditions = 24 h; scale = relative to: IC50 L02 over IC50 HepG2; measurement = therapeutic index; value = 12.9
Compound = Cc1ccc(NC(=O)c2cccc(C(F)(F)F)c2)cc1N1Cc2cnc(Nc3ccccc3)nc2N(C)C1=O; assay = cell growth or viability, ATP luminescence; conditions = 72 h; measurement = GI50; value = 1.89 µM
Compound = C=C1C(=O)C23CCC4C(C)(C)CCCC4(C)C2C(O)CC1C3 (single isomer, unassigned); conditions = concentration not given; measurement = GSH/GSSG ratio; value = decreased
Compound = CCC12C=C(C(=O)OC)n3c(c(c4ccccc43)CCN(C=CC(=O)OC)CCC1)C2c1ccc(O)cc1 (centres unmarked); assay = cytotoxicity; measurement = EC50; value = > 40 µM
Compound = CCN(CC)S(=O)(=O)c1cc(NCC(=O)Nc2ccc(F)c(Cl)c2)ccc1C; assay = cell growth or viability; measurement = EC50; value = > 25 µM
Compound = Cc1ccc(Nc2ncc3c(n2)N(C)C(=O)N(c2cc(NC(=O)c4ccc(CN5CCC(N(C)C)C5)c(C(F)(F)F)c4)ccc2C)C3)cn1 (centres unmarked); assay = cell growth or viability, ATP luminescence; conditions = 72 h; measurement = GI50; value = 0.458 µM
Compound = CCOC(=O)c1c(C(C)C)oc2nc(N3CCCC3)ccc12; assay = cell growth or viability; conditions = 48 h; measurement = EC50; value = > 50 µM
Compound = CC(=O)O[C@H]1CC[C@]2(C)[C@H]3C(=O)C=C4[C@@H]5C[C@@](C)(C(=O)OCc6ccccc6)CC[C@]5(C)CC[C@@]4(C)[C@]3(C)CC[C@H]2C1(C)C; assay = annexin V/7-AAD flow cytometry; conditions = 8 µM, 48 h; measurement = apoptotic cells; value = 45.8%
Compound = Cc1ccc2nc(-c3ccccc3)c(CNc3cccc(C(F)(F)F)c3)n2c1; assay = cell growth or viability; conditions = 48 h; measurement = EC50; value = > 50 µM
Compound = Cc1cc2nc(-c3cc4ccccc4nc3Cl)[nH]c2cc1C; assay = flow cytometry; conditions = 10 µM, 48 h; measurement = cells in G2 phase; value = 53.3%
Compound = CCOC(=O)c1c(-c2ccc(C)cc2)oc2ncccc12; assay = cell growth or viability; conditions = 48 h; measurement = EC50; value = > 50 µM
Compound = Cc1ccc(NCC(=O)Nc2ccccc2)cc1S(=O)(=O)N1CCOCC1; assay = cell growth or viability; measurement = EC50; value = > 25 µM
Compound = Cc1ccc2nc(-c3ccccc3)c(CN3CCCCC3)n2c1; assay = cell growth or viability; conditions = 48 h; measurement = EC50; value = > 50 µM
Compound = CSC(=NN=C(C)c1ccc(S(=O)(=O)N2CCC(C)CC2)cc1)N(C)C; assay = flow cytometry; conditions = 3.31 µM, 72 h; measurement = cells in %S; value = 33.4%
Compound = COc1ccc2c(=O)c3cc(OS(=O)(=O)C(F)(F)F)ccc3[nH]c2c1; assay = cell growth or viability, resazurin; measurement = CC50; value = > 200 µM
Compound = O=C1/C(=C/c2ccc3c(c2)OCCO3)SC(=S)N1[C@@H]1O[C@H](CO)[C@@H](O)[C@H](O)[C@H]1O; assay = annexin V/PI; conditions = IC50, 48 h; measurement = early apoptotic cells; value = 29.1%

A few entries again:
Compound = Cc1ccc(NCC(=O)Nc2ccc(F)c(Cl)c2)cc1S(=O)(=O)N1CCCCC1; assay = cell growth or viability; measurement = EC50; value = 24 µM
Compound = O=C1CCNC(=O)[C@H](Cc2c[nH]cn2)NC(=O)[C@@H]2CCCN2C(=O)[C@H](Cc2c[nH]cn2)NC(=O)CCN1; assay = MTT; conditions = 10 µg/mL, 6 h; measurement = viability; value = 13.9%
Compound = CC(=O)O[C@@H]1CC[C@@]2(C)C(CC[C@]3(C)C2C(=O)C=C2C4[C@@H](C)[C@H](C)CC[C@]4(C)CC[C@]23C)[C@@]1(C)C(=O)OCC(=O)Oc1cc(C)ccc1C(C)C (some centres unmarked); assay = TNF-α production, ELISA, item: TNF-α; conditions = 1 µM, together with: acetaminophen 10 mM; scale = relative to: acetaminophen-treated cells; measurement = inhibition; value = ~41%
